Results of several laboratories.
A part holds a random share of what one study measured.
UniProt P42336, sequence (whole entry, unmodified, looked up): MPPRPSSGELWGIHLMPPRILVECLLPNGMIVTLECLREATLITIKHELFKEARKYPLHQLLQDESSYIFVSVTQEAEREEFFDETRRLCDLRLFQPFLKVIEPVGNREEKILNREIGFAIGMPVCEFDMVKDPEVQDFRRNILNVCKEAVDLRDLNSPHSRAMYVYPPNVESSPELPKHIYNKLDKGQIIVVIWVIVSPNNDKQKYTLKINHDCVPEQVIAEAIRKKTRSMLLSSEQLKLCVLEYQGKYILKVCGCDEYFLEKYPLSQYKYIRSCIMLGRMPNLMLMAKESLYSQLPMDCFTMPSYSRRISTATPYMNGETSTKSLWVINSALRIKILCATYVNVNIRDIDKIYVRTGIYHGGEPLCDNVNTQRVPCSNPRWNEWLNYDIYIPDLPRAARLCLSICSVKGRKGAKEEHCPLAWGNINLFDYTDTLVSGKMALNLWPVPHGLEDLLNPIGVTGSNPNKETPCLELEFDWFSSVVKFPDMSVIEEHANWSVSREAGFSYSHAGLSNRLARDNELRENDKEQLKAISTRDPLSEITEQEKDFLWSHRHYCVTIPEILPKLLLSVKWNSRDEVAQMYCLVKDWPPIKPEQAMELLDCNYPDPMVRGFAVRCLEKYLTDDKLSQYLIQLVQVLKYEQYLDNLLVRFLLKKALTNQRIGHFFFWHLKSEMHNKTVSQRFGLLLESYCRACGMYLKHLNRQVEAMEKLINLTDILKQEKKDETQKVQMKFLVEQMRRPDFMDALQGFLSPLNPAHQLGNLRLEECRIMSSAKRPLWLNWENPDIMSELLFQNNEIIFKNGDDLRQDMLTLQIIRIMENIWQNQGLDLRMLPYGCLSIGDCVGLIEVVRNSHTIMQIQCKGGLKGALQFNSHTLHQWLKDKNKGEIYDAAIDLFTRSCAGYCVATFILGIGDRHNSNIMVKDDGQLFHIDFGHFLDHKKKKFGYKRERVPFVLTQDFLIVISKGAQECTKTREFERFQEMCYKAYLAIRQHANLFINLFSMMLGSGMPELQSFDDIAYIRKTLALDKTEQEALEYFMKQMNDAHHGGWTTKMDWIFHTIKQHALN
UniProt Q9H4B4, sequence (whole entry, looked up): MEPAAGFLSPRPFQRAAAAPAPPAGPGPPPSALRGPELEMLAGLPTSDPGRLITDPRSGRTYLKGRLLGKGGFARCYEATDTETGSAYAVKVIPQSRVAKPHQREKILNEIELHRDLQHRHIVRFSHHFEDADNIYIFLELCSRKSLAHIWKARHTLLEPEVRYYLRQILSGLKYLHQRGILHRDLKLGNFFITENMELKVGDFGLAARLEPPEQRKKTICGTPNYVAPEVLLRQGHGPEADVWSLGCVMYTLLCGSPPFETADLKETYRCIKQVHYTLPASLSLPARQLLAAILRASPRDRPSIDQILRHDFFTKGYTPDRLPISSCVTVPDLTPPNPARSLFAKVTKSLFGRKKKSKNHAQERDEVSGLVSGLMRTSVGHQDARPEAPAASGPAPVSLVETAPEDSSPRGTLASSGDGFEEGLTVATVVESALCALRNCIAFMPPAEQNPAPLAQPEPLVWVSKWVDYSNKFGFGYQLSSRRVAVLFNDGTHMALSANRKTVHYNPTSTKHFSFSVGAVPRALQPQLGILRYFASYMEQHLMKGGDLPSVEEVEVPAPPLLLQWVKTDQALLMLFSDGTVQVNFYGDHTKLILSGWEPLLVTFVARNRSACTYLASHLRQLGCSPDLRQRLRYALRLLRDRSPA
UniProt O43353, sequence (whole entry, looked up): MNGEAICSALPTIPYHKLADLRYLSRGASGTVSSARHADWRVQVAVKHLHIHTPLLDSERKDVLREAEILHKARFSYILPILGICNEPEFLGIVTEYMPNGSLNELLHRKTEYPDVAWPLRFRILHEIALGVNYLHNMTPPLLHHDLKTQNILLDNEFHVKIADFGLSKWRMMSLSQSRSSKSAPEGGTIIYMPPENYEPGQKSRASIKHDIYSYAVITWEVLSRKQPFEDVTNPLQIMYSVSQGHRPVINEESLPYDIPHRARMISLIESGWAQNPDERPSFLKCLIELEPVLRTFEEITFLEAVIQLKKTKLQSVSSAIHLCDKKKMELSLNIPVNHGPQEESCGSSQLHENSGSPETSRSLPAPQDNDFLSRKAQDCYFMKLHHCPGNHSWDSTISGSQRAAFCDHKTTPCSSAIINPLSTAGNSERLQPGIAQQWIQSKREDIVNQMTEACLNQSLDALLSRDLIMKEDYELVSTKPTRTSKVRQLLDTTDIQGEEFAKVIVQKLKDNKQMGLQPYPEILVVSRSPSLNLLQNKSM
UniProt Q05397, sequence (whole entry, looked up): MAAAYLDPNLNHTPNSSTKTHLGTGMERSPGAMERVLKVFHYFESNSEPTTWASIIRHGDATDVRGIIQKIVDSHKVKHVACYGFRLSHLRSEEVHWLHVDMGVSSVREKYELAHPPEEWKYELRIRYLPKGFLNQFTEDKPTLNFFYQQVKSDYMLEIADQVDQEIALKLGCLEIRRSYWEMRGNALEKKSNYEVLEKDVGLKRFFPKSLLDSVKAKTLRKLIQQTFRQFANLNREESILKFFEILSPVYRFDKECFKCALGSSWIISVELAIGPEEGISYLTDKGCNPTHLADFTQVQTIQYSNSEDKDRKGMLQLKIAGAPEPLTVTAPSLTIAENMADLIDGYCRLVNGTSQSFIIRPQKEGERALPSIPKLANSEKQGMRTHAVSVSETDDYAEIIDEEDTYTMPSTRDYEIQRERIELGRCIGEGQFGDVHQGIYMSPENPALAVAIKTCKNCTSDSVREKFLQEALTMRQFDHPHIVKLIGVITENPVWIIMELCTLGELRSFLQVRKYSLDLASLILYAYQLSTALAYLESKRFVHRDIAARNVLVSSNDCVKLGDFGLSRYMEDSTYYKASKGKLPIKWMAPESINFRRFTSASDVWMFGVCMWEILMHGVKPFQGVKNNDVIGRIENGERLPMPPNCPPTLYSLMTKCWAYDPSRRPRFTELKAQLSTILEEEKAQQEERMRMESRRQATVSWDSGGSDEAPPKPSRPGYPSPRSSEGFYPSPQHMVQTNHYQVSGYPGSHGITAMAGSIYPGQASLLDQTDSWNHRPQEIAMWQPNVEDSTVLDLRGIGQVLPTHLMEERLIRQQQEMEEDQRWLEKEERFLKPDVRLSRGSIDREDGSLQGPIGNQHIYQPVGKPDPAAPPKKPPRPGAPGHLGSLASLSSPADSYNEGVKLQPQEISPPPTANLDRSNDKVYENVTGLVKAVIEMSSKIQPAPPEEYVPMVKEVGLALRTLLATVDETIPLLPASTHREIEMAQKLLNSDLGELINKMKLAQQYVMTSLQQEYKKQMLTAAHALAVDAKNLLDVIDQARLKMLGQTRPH

Series 1
Organism: Sarcocystis neurona
Observed: parasite growth
Tested at: 10 µM
Setting: first screen
Reference: untreated
Compound | log2 fold change
CCN1CC(CCN2CCOCC2)C(c2ccccc2)(c2ccccc2)C1=O.Cl (stereo not shown) | 0.47
COc1ccc(CN2CCN(C(c3ccc(F)cc3)c3ccc(F)cc3)CC2)c(OC)c1OC.Cl.Cl | -0.25
O=C1c2c(O)ccc(O)c2C(=O)c2c(NCCNCCO)ccc(NCCNCCO)c21 | -2.01
CN1CCc2cc(Cl)c(O)cc2[C@@H](c2ccccc2)C1.Cl | 0.0844
CC(C)NCC(O)COc1cccc2ccccc12.Cl (stereo not shown) | 0.26
Cl.NC[C@H](O)c1ccc(O)c(O)c1 | 0.32
O=c1ncc(F)c[nH]1 | -0.77
C[N+]1(C)CCC(OC(=O)C(O)(c2ccccc2)C2CCCC2)C1.[Br-] (stereo not shown) | -0.1
CC(C)[N+]1(C)[C@@H]2CC[C@H]1CC(OC(=O)C(CO)c1ccccc1)C2.[Br-] (stereo partly shown) | 0.3

Series 2
SMILES: O=C(Nc1ccc(Oc2ccc(F)cc2)cc1)N1CCc2ncccc2[C@H]1c1ccc(F)cc1
Tested at: 1 µM
target | observed | method | remaining binding [%]
cAMP-dependent protein kinase catalytic subunit beta (PRKACB, Homo sapiens, UniProt P22694) | cell-free assay | competition with immobilised ligand | 83
Phosphatidylinositol 4,5-bisphosphate 3-kinase catalytic subunit beta isoform (PIK3CB, Homo sapiens, UniProt P42338) | cell-free assay | competition with immobilised ligand | 77
Receptor-interacting serine/threonine-protein kinase 2 (RIPK2, Homo sapiens, UniProt O43353) | cell-free assay | competition with immobilised ligand | 96
Macrophage colony-stimulating factor 1 receptor (CSF1R, Homo sapiens, UniProt P07333) | cell-free assay | competition with immobilised ligand | 90
Cyclin-dependent kinase 9 (CDK9, Homo sapiens, UniProt P50750) | cell-free assay | competition with immobilised ligand | 87
Focal adhesion kinase 1 (PTK2, Homo sapiens, UniProt Q05397) | cell-free assay | competition with immobilised ligand | 100
Tyrosine-protein kinase ABL1, non-phosphorylated (ABL1, Homo sapiens, UniProt P00519, T315I) | cell-free assay | competition with immobilised ligand | 98
Phosphatidylinositol 4,5-bisphosphate 3-kinase catalytic subunit alpha isoform (PIK3CA, Homo sapiens, UniProt P42336, E545A) | cell-free assay | competition with immobilised ligand | 100
Insulin-like growth factor 1 receptor (IGF1R, Homo sapiens, UniProt P08069) | cell-free assay | competition with immobilised ligand | 100
Serine/threonine-protein kinase PLK3 (PLK3, Homo sapiens, UniProt Q9H4B4) | cell-free assay | competition with immobilised ligand | 87
Mitogen-activated protein kinase kinase kinase kinase 1 (MAP4K1, Homo sapiens, UniProt Q92918) | cell-free assay | competition with immobilised ligand | 100
Leucine-rich repeat serine/threonine-protein kinase 2 (LRRK2, Homo sapiens, UniProt Q5S007, G2019S) | cell-free assay | competition with immobilised ligand | 100
Phosphatidylinositol 4,5-bisphosphate 3-kinase catalytic subunit alpha isoform (PIK3CA, Homo sapiens, UniProt P42336, H1047L) | cell-free assay | competition with immobilised ligand | 85
Epidermal growth factor receptor (EGFR, Homo sapiens, UniProt P00533, G719C) | cell-free assay | competition with immobilised ligand | 73
Tyrosine-protein kinase ABL1, phosphorylated (ABL1, Homo sapiens, UniProt P00519, F317I) | binding | – | 100
Serine/threonine-protein kinase B-raf (BRAF, Homo sapiens, UniProt P15056, V600E) | cell-free assay | competition with immobilised ligand | 93
Mitogen-activated protein kinase kinase kinase 7 (MAP3K7, Homo sapiens, UniProt O43318) | cell-free assay | competition with immobilised ligand | 89
Megakaryocyte-associated tyrosine-protein kinase (MATK, Homo sapiens, UniProt P42679) | cell-free assay | competition with immobilised ligand | 90
Serine/threonine-protein kinase PRP4 homolog (PRPF4B, Homo sapiens, UniProt Q13523) | cell-free assay | competition with immobilised ligand | 100
Tyrosine-protein kinase receptor TYRO3 (TYRO3, Homo sapiens, UniProt Q06418) | cell-free assay | competition with immobilised ligand | 99

Series 3
Compound: C=CCc1ccc(O)c(-c2ccc(O)c(CC=C)c2)c1
Observed: chloride current
Method: whole-cell voltage clamp
ANO1 del476-501/M544A: Anoctamin-1 (ANO1, Homo sapiens, UniProt Q5XXA6, del476-501/M544A)
UniProt Q5XXA6, sequence (whole entry, unmodified, looked up): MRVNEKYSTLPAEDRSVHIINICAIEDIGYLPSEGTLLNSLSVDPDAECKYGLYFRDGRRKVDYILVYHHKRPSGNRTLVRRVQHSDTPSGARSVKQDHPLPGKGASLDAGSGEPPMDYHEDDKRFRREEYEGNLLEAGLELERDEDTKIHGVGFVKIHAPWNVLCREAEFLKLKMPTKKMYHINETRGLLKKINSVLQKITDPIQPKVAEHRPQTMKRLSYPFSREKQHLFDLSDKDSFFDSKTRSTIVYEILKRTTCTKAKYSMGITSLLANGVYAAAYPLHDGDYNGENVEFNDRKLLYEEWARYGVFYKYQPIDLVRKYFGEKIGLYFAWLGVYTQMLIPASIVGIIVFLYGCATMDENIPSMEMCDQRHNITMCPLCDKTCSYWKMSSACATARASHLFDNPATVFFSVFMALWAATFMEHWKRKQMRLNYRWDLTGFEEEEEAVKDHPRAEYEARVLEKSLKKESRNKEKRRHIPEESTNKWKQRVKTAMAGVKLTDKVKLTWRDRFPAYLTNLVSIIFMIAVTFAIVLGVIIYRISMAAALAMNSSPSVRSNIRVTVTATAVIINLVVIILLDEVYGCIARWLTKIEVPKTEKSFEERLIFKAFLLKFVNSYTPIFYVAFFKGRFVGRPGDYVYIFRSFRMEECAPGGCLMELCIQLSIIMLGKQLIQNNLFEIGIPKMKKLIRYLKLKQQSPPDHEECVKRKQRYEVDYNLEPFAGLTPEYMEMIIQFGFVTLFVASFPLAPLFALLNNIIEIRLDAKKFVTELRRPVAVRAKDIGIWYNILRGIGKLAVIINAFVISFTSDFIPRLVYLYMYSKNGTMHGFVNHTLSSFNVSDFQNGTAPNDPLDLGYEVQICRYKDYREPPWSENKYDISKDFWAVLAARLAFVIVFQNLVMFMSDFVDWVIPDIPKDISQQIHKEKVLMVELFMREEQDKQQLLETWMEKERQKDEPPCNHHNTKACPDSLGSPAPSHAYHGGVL
ANO1 del476-501/F627A: Anoctamin-1 (ANO1, Homo sapiens, UniProt Q5XXA6, del476-501/F627A)
target | mode | setting | with | IC50
Anoctamin-1 (ANO1, Homo sapiens, UniProt Q5XXA6, del476-501/R631K) | inhibitor | R605K mutant at 80 mV | – | 8.13 µM
ANO1 del476-501/M544A | – | membrane voltage 40 mV | – | 3.6 µM
Anoctamin-1 (ANO1, Homo sapiens, UniProt Q5XXA6, del476-501/F623A) | – | membrane voltage 60 mV | – | 8.82 µM
Anoctamin-1 (ANO1, Homo sapiens, UniProt Q5XXA6, del476-501) | inhibitor | -80 mV voltage | 300 nM Ca2+ | 3.01 µM
Anoctamin-1 (ANO1, Homo sapiens, UniProt Q5XXA6, del476-501/F646A) | – | membrane voltage 100 mV | – | 9.57 µM
ANO1 del476-501/M544A | – | membrane voltage -100 mV | – | 4.85 µM
Anoctamin-1 (ANO1, Homo sapiens, UniProt Q5XXA6, del476-501/F628I) | inhibitor | F602I mutant at 60 mV | – | 9 µM
ANO1 del476-501/F627A | – | membrane voltage -80 mV | – | 5.5 µM
ANO1 del476-501/F627A | – | membrane voltage -100 mV | – | 5.94 µM
Anoctamin-1 (ANO1, Homo sapiens, UniProt Q5XXA6, del476-501/R561A) | – | membrane voltage -80 mV | – | 7.16 µM
Anoctamin-1 (ANO1, Homo sapiens, UniProt Q5XXA6, del476-501/F803A) | – | membrane voltage -100 mV | – | 27.8 µM

Series 4
Target: Beta-1 adrenergic receptor (ADRB1, Homo sapiens, UniProt P08588)
UniProt P08588, sequence (whole entry, looked up): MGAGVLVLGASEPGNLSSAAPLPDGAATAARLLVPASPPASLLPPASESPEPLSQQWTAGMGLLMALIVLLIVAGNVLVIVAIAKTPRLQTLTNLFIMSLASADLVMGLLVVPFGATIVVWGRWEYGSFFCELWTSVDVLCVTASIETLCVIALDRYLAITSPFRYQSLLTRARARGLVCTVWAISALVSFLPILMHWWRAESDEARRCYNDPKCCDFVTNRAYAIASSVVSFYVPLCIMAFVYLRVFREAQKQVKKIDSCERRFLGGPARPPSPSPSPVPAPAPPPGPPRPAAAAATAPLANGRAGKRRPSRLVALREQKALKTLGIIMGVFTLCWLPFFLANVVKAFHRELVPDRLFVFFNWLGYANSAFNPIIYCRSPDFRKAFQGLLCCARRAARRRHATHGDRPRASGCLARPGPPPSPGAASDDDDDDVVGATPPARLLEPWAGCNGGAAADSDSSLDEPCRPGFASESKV
Mode: antagonist
Structure (SMILES) | IC50 [µM]
NCC(=O)Nc1cccc(-c2nn3c(=O)cc(N4CCNCC4)nc3s2)c1 | ≥ 100
Clc1ccccc1C(c1ccccc1)N1CCNCC1 (stereo not shown) | ≥ 100
COc1ccccc1N1CCC(N2CCN(CCCc3ccccc3)C(CCO)C2)CC1 (stereo not shown) | ≥ 100
CC(C)c1ccc(Nc2n[nH]c(C(O)c3ccccc3)n2)cc1 (stereo not shown) | ≥ 100
CC(C)(O)Cn1c(NC(=O)c2ccc(-c3cn[nH]c3)s2)nc2cc(N3CCOC3=O)ccc21 | ≥ 100
COc1ccccc1N1CCN(C(=O)c2ccc(C)s2)CC1 | ≥ 100
FC(F)(F)c1cccc(C2=NOC3(CCN(Cc4ccsc4)C3)C2)c1 (stereo not shown) | ≥ 100
OC(CN1CCN(c2cccc(Cl)c2)CC1)C(c1ccccc1)c1ccccc1 (stereo not shown) | ≥ 100
O=c1c2nc(-c3ccc4c(c3)OCO4)ccc2ncn1-c1ccc(F)cc1F | ≥ 100

Excerpt of the above (series 1):
Compound | log2 fold change
CN1CCc2cc(Cl)c(O)cc2[C@@H](c2ccccc2)C1.Cl | 0.0844
C[N+]1(C)CCC(OC(=O)C(O)(c2ccccc2)C2CCCC2)C1.[Br-] (stereo not shown) | -0.1
CC(C)NCC(O)COc1cccc2ccccc12.Cl (stereo not shown) | 0.26
O=C1c2c(O)ccc(O)c2C(=O)c2c(NCCNCCO)ccc(NCCNCCO)c21 | -2.01
CC(C)[N+]1(C)[C@@H]2CC[C@H]1CC(OC(=O)C(CO)c1ccccc1)C2.[Br-] (stereo partly shown) | 0.3
